{"data": "Assay results of several laboratories", "note": "Protocols differ between the studies behind these lines. Numbers after ± are the reported error."}
{"Compound": "CC(=O)OC1CCC2(C)C3CC(OC(C)=O)C4(C)C(C5=CC(=O)OC5)CCC4(O)C3CCC2(N=[N+]=[N-])C1 (stereo not drawn)", "setting": "pH 7.4", "measurement": "logD", "result": 2.71}
{"Compound": "CC(C)C[C@@H](N)C(=O)NCC(=O)N[C@H](C)C(=O)N[C@H](CO)C(=O)N[C@H](Cc1c[nH]c2ccccc12)C(=O)N[C@H](Cc1c[nH]cn1)C(=O)N[C@H](CCCNC(=N)N)C(=O)N1CCC[C@@H]1C(=O)N[C@H](CC(=O)O)C(=O)N[C@H](CCCCN)C(=O)N[C@H](CS)C(=O)N[C@H](CS)C(=O)N[C@H](CC(C)C)C(=O)NCC(=O)N[C@H](Cc1ccc(O)cc1)C(=O)N[C@H](CCC(N)=O)C(=O)N[C@H](CCCCN)C(=O)N[C@H](CCCNC(=N)N)C(=O)N1CCC[C@@H]1C(=O)N[C@H](CC(C)C)C(=O)N1CCC[C@@H]1C(N)=O", "test": "LC-MS/MS", "system": "rat plasma", "setting": "5000 ng/mL, 30 days, -80 °C, storage", "how to read": "baseline: nominal", "measurement": "accuracy", "result": "111%"}
{"Compound": "COc1cc(-c2cncc(-c3ccc(N4CCNCC4)cc3)c2C)cc(OC)c1O[11CH3]", "test": "dynamic PET", "system": "Sprague-Dawley rats male, whole brain", "setting": "intravenous, 16 to 23 MBq", "measurement": "peak SUV", "result": 0.6}
{"Compound": "CCN(CC)c1ccc2c(-c3ccccc3C(=O)OCCOCC[18F])c3ccc(=[N+](CC)CC)cc-3oc2c1", "system": "rat, bone", "setting": "1 h", "measurement": "tracer uptake", "result": "0.77 %ID/g"}
{"Compound": "CC[C@H](C)C(=O)N1CCC(NC(=O)Nc2ccc(OC(F)(F)F)c(F)c2)CC1", "system": "healthy volunteers", "setting": "oral, 2 mg single dose", "measurement": "subjects with insomnia TEAE", "result": "0%"}
{"Compound": "CSCC[C@@H]1NC(=O)[C@@H]2CSSC[C@H](NC(=O)[C@H](CO)NC(=O)[C@H](C)N)C(=O)N[C@@H](CCCNC(=N)N)C(=O)N[C@@H]([C@@H](C)O)C(=O)N3CCC[C@H]3C(=O)N[C@@H](CCCCN)C(=O)N[C@@H](CC(=O)O)C(=O)N[C@H]3CSSC[C@H](NC(=O)[C@H](CCCCN)NC(=O)[C@H](CCCNC(=N)N)NC(=O)[C@H](CC(N)=O)NC1=O)C(=O)N[C@@H](CCCCN)C(=O)N[C@H]1CSSC[C@H](NC(=O)[C@@H]4CCCN4C(=O)[C@H](CC(=O)O)NC(=O)[C@H](C)NC3=O)C(=O)N[C@@H](C)C(=O)N[C@@H](CCCCN)C(=O)N[C@@H](CCC(=O)O)C(=O)N[C@@H]([C@@H](C)O)C(=O)NCC(=O)N[C@@H](CSSC[C@@H](C(N)=O)NC(=O)[C@H](CCCNC(=N)N)NC(=O)[C@H](CC(N)=O)NC1=O)C(=O)N1CCC[C@H]1C(=O)N[C@@H](Cc1ccc(O)cc1)C(=O)NCC(=O)N[C@@H](CCCCN)C(=O)N2", "system": "DA rat, pristane-induced arthritis, serum", "setting": "subcutaneous, 0.1 mg/kg every other day, end of 21-day trial", "measurement": "indirect bilirubin", "result": "0.02 mg/dL"}
{"Compound": "CCCCCCCCCCCCC(=O)O.O=C1CCCC2C3CCCN4CCCC(CN12)C34 (stereo not drawn)", "system": "water", "setting": "concentration not given, 293.15 K", "measurement": "limiting apparent molar volume", "result": "420 ± 0.6 cm³/mol"}
{"Compound": "CCCCCCCCCCCCCCCC(=O)N[C@@H](CCC(=O)NCCCC[C@H](NC(=O)[C@H](CC(=O)O)NC(=O)[C@H](CO)NC(=O)[C@@H](NC(=O)[C@H](Cc1ccccc1)NC(=O)[C@@H](NC(=O)CNC(=O)[C@H](CCC(N)=O)NC(=O)[C@H](C)NC(=O)[C@@H](Cc1ccc(O)cc1)NC(C)=O)[C@@H](C)O)[C@@H](C)O)C(=O)N[C@@H](CO)C(=O)N[C@@H](CCCCN)C(=O)N[C@@H](Cc1ccc(O)cc1)C(=O)N[C@@H](CC(C)C)C(=O)N[C@@H](CC(=O)O)C(=O)N[C@@H](CCC(=O)O)C(=O)N[C@@H](CCCNC(=N)N)C(=O)N[C@@H](C)C(=O)N[C@@H](C)C(=O)N[C@@H](CCC(N)=O)C(=O)N[C@@H](CC(=O)O)C(=O)N[C@@H](Cc1ccccc1)C(=O)N[C@H](C(=O)N[C@@H](CCC(N)=O)C(=O)N[C@@H](Cc1c[nH]c2ccccc12)C(=O)N[C@@H](CC(C)C)C(=O)N[C@@H](CC(C)C)C(=O)N[C@@H](CCC(=O)O)C(=O)NCC(=O)NCC(=O)N1CCC[C@H]1C(=O)N[C@@H](CO)C(=O)N[C@@H](CO)C(=O)NCC(=O)N[C@@H](C)C(=O)N1CCC[C@H]1C(=O)N1CCC[C@H]1C(=O)N1CCC[C@H]1C(=O)N[C@@H](CO)C(N)=O)C(C)C)C(=O)O", "test": "Holter monitoring", "system": "human", "setting": "subcutaneous, 150 µg single dose, first 48 h", "how to read": "baseline: baseline", "measurement": "heart rate increase", "result": "25 bpm"}
{"Compound": "CC(C)C[C@@H]1NC(=O)[C@@H](Cc2c[nH]c3ccccc23)NC(=O)[C@H](CCCNC(=N)N)NC(=O)[C@@H](CCC(=O)O)NC(=O)[C@H](CCC(N)=O)NC(=O)[C@@H](CCC(=O)O)NC(=O)[C@H](CCCNC(=N)N)NC(=O)[C@@H](Cc2c[nH]c3ccccc23)NC1=O", "test": "LC-MS", "system": "male BALB/cByJ mice", "setting": "intraperitoneal, 16 mg/kg", "measurement": "plasma half-life", "result": "~6 h"}
{"Compound": "COC[C@@H](NC(C)=O)C(=O)NCc1ccc(OCc2ccc(Cl)cc2)cc1", "test": "behavioural toxicity", "system": "rat", "setting": "oral", "measurement": "TD50", "result": "> 500 mg/kg"}
{"Compound": "COc1ccc(F)cc1S(=O)(=O)Nc1cnc2c(c1)C(=O)NCCO2", "system": "male C57BL/6 mouse, plasma", "setting": "oral, 3 mg/kg, single dose", "measurement": "Tmax", "result": "1 h"}
{"Compound": "CC1N=C(c2ccccc2F)c2cc(Br)ccc2-n2cnc(C(=O)OC3OC(CO)C(O)C(O)C3O)c21 (stereo not drawn)", "system": "Swiss Webster mouse", "setting": "intravenous, 250 µg of parent drug, 0 to 48 h", "how to read": "baseline: dose", "measurement": "excretion in urine and feces", "result": "46 ± 4.1%"}
{"Compound": "COc1cc(NC(=O)C(=O)c2c(C)n(Cc3ccc(Cl)cc3)c3ccc(C)cc23)ccn1", "system": "cynomolgus monkey, plasma", "setting": "intravenous, 1 mg/kg", "measurement": "AUC(0-inf)", "result": "1970 ng·h/mL"}
{"Compound": "O=C(CN1CCN(c2cc3c(cc2F)c(=O)c(C(=O)O)cn3C2CC2)CC1)Nc1ccc(Cl)cc1", "system": "BALB/c mice, female, plasma", "setting": "iv, 3.75 mg/kg", "measurement": "clearance", "result": "0.00416 mL/min"}
{"Compound": "COC(=O)C[C@](O)(CCCC(C)(C)OC(C)=O)C(=O)O[C@@H]1C(OC)=C[C@]23CCCN2CCc2cc4c(cc2[C@H]13)OCO4", "system": "CD1 mouse, kidney", "setting": "oral, 1 mg/kg, 24 h, below quantification limit 1.00 ng/mL", "measurement": "tissue concentration", "result": "not detected"}
{"Compound": "CCNc1cc2[o+]c3cc(NCC)c(C)cc3c(-c3ccccc3C(=O)OCCOCC[18F])c2cc1C", "system": "rat, bone", "setting": "60 min", "measurement": "tissue uptake", "result": "0.29 ± 0.05 %ID/g"}
{"Compound": "CC(C)[C@H](NC(=O)[C@H](CC(N)=O)NC(=O)[C@@H](NC(=O)[C@@H]1CCCN1C(=O)[C@@H](NC(=O)[C@@H](N)Cc1ccccc1)C(C)C)[C@@H](C)O)C(=O)NCC(=O)N1CCC[C@H]1C(=O)N[C@@H](Cc1ccccc1)C(=O)N[C@@H](C)C(=O)N[C@@H](Cc1ccccc1)C(N)=O", "system": "25 % human serum", "setting": "50 µg/mL, 30 min, 37 °C", "measurement": "peptide concentration", "result": "13.8 µg/mL"}
{"Compound": "CC[C@H](C)[C@H](NC(=O)[C@@H](NC(=O)[C@H](CCCNC(=N)N)NC(=O)[C@H](CO)NC(=O)[C@H](CCCCN)NC(=O)[C@H](CC(C)C)NC(=O)[C@H](C)NC(=O)[C@H](CC(=O)O)NC(=O)[C@@H]1CCCN1C(=O)[C@H](CCC(N)=O)NC(=O)[C@@H]1CCCN1C(=O)[C@@H]1CCCN1C(=O)[C@H](CCCNC(=N)N)NC(=O)[C@H](CCCNC(=N)N)NC(=O)[C@H](CCCNC(=N)N)NC(=O)[C@H](CCC(N)=O)NC(=O)[C@H](CCCNC(=N)N)NC(=O)[C@H](CCCNC(=N)N)NC(=O)[C@H](CCCCN)NC(=O)[C@H](CCCCN)NC(=O)[C@H](CCCNC(=N)N)NC(=O)CN)[C@@H](C)O)C(=O)N[C@@H](CCCNC(=N)N)C(=O)O", "system": "mouse, hippocampus", "setting": "intranasal, dose not given", "measurement": "hippocampal detection", "result": "not detected"}
{"Compound": "CC[C@H](C)[C@H](N)C(=O)N[C@@H](CC(N)=O)C(=O)N[C@@H](Cc1c[nH]cn1)C(=O)N[C@H](C(=O)NCC(=O)NCC(=O)N[C@H](C(=O)NCC(=O)NCC(=O)N[C@@H](C)C(=O)N[C@H](C(=O)N[C@@H](CCSC)C(=O)N[C@@H](C)C(=O)N1CCC[C@H]1C(=O)N[C@H](C(=O)N[C@@H](C)C(=O)N[C@H](C(=O)N[C@H](C(=O)N[C@@H](CCCNC(=N)N)C(=O)N[C@@H](CCC(N)=O)C(=O)N[C@@H](CC(C)C)C(=O)N[C@H](C(=O)NCC(=O)NCC(=O)N[C@@H](CS)C(=O)NCC(=O)NCC(=O)NCC(=O)N[C@@H](CCCCN)C(=O)N[C@@H](CCC(=O)O)C(=O)N[C@H](C(=O)N[C@@H](C)C(=O)N[C@@H](C)C(=O)N[C@@H](C)C(=O)N[C@@H](CCCCN)C(=O)N[C@@H](Cc1ccccc1)C(=O)N[C@@H](CCC(=O)O)C(=O)N[C@@H](CCCNC(=N)N)C(=O)N[C@@H](CCC(N)=O)C(=O)N[C@@H](Cc1c[nH]cn1)C(=O)N[C@@H](CCSC)C(=O)N[C@@H](CC(=O)O)C(=O)N[C@@H](CO)C(=O)O)[C@@H](C)O)C(C)C)[C@@H](C)O)C(C)C)C(C)C)[C@@H](C)CC)[C@@H](C)O)C(C)C", "test": "dynamic light scattering", "system": "phosphate buffer", "setting": "25 µM, pH 7.4, 25 °C", "measurement": "particle size", "result": "47 ± 23 nm"}
{"Compound": "CC(C)[C@H](NC(=O)CNC(=O)[C@H](CCC(N)=O)NC(=O)[C@H](C)N)C(=O)O", "system": "healthy human", "setting": "intravenous, 3 mg/kg single dose", "how to read": "baseline: subjects", "measurement": "definitely drug-related adverse events", "result": "0%"}
{"Compound": "CCCC[C@H]1C(=O)N(C)[C@@H](CCCC)C(=O)N[C@@H](CCCNC(=O)CN2CCN(CC(=O)O)CCN(CC(=O)O)CCN(CC(=O)O)CC2)C(=O)N[C@H](C(=O)NCC(N)=O)CSCC(=O)N[C@@H](Cc2ccc(O)cc2)C(=O)N(C)[C@@H](C)C(=O)N[C@@H](CC(N)=O)C(=O)N2CCC[C@H]2C(=O)N[C@@H](Cc2c[nH]cn2)C(=O)N[C@@H](CC(C)C)C(=O)N(C)CC(=O)N[C@@H](Cc2c[nH]c3ccccc23)C(=O)N[C@@H](CO)C(=O)N[C@@H](Cc2c[nH]c3ccccc23)C(=O)N1C [gallium-68 labelled]", "test": "static PET", "system": "NOD/SCID mice, CHO-hPD-L1 xenograft, CHO-hPD-L1 tumour", "setting": "intravenous, 1 h post injection, after two PBS treatments", "measurement": "tumour to muscle ratio", "result": "6.1 ± 0.64"}
{"note": "For quick reference, copied from above:"}
{"Compound": "O=C(CN1CCN(c2cc3c(cc2F)c(=O)c(C(=O)O)cn3C2CC2)CC1)Nc1ccc(Cl)cc1", "system": "BALB/c mice, female, plasma", "setting": "iv, 3.75 mg/kg", "measurement": "clearance", "result": "0.00416 mL/min"}
{"Compound": "CSCC[C@@H]1NC(=O)[C@@H]2CSSC[C@H](NC(=O)[C@H](CO)NC(=O)[C@H](C)N)C(=O)N[C@@H](CCCNC(=N)N)C(=O)N[C@@H]([C@@H](C)O)C(=O)N3CCC[C@H]3C(=O)N[C@@H](CCCCN)C(=O)N[C@@H](CC(=O)O)C(=O)N[C@H]3CSSC[C@H](NC(=O)[C@H](CCCCN)NC(=O)[C@H](CCCNC(=N)N)NC(=O)[C@H](CC(N)=O)NC1=O)C(=O)N[C@@H](CCCCN)C(=O)N[C@H]1CSSC[C@H](NC(=O)[C@@H]4CCCN4C(=O)[C@H](CC(=O)O)NC(=O)[C@H](C)NC3=O)C(=O)N[C@@H](C)C(=O)N[C@@H](CCCCN)C(=O)N[C@@H](CCC(=O)O)C(=O)N[C@@H]([C@@H](C)O)C(=O)NCC(=O)N[C@@H](CSSC[C@@H](C(N)=O)NC(=O)[C@H](CCCNC(=N)N)NC(=O)[C@H](CC(N)=O)NC1=O)C(=O)N1CCC[C@H]1C(=O)N[C@@H](Cc1ccc(O)cc1)C(=O)NCC(=O)N[C@@H](CCCCN)C(=O)N2", "system": "DA rat, pristane-induced arthritis, serum", "setting": "subcutaneous, 0.1 mg/kg every other day, end of 21-day trial", "measurement": "indirect bilirubin", "result": "0.02 mg/dL"}
